Measured values of several laboratories.
Protocols differ between the studies behind these lines. ± gives the spread as reported.

Structure (SMILES) | tested on | assay | test system | conditions | how to read | measurement | result
Cc1ncsc1-c1ccc(C(C)NC(=O)C2CC(O)CN2C(=O)C(NC(=O)CCCCCCCCCCN2CCCC(Nc3ncc(Cl)c(Nc4ccccc4S(=O)(=O)C(C)C)n3)C2)C(C)(C)C)cc1 (stereo not shown) | 22Rv1 | RNA-seq, item: TSTD2 mRNA |  | concentration not given | relative to: DMSO | log2 fold change | -1.3
C=CC(=O)N1[C@@H](c2ccc3c(c2)OCO3)c2[nH]c3ccccc3c2C[C@H]1C(=O)N1CCN(C)CC1 | human cyclin E1 N112C-3xFLAG:CDK2 | co-IP with TMT proteomics, item: RBMX |  | concentration not given, P38159 | relative to: wild type DMSO | relative co-enrichment | 197%
C[n+]1cc(/C=N/NC(=O)c2ccc3ccc(C(=O)N/N=C/c4cc5ccccc5[n+](C)c4)nc3n2)cc2ccccc21 | 22CTA telomeric G4-DNA antiparallel | FRET melting |  | 1 µM, K10 buffer, DNA 0.2 µM, added: ds26 10 µM |  | ΔTm | 10.5 ± 0.3 °C
Nc1ncc(-c2cc(-c3cnn(CC(F)(F)F)c3)ncc2F)nc1C(=O)NC1CNCC(F)C1 (stereo not shown) | FES | KINOMEscan |  | 1 µM | relative to: DMSO control | remaining binding | 100%
c1ccc(-c2n[nH]cc2-c2ccnc3ccccc23)nc1 | RTK1 (Candida albicans) | kinase binding, MIB/MS competition | Candida albicans lysate | 10 µM | relative to: DMSO | log2 fold change | 0.03
C[n+]1cccc2cc(/C=N/NC(=O)c3cccc(C(=O)N/N=C/c4ccc5c(ccc[n+]5C)c4)c3)ccc21 | 22CTA telomeric G4-DNA antiparallel | FRET melting |  | 1 µM, K10 buffer, DNA 0.2 µM |  | ΔTm | 5.4 ± 0.3 °C
COC1CN([C@H]2CC[C@H]([C@@]3(C)Oc4c(Cl)cc(C(=O)NCc5c(SC)cc(C)[nH]c5=O)c(C)c4O3)CC2)C1 |  | RNA-seq, item: RAP1GAP mouse homolog | mouse, HT-1376 xenograft, whole blood | dose not given | relative to: vehicle | log2 fold change | 1.97
CO[C@@H]1[C@@H](OC(N)=O)[C@@H](O)[C@H](Oc2ccc3c(O)c(NC(=O)c4ccc(O)c(CC=C(C)C)c4)c(=O)oc3c2C)OC1(C)C | DLD-1 parental |  |  | 50 µM, replicate 1 |  | colony count | 66.5
C[n+]1cc(/C=N/NC(=O)c2cc(C(=O)N/N=C/c3cc4ccccc4[n+](C)c3)ncn2)cc2ccccc21 | 22CTA telomeric G4-DNA antiparallel | FRET melting |  | 1 µM, K10 buffer, DNA 0.2 µM |  | ΔTm | 5.6 ± 0.8 °C
C=CC(=O)Nc1cccc(Cn2ncc3cnc(Nc4cnn(CCOC)c4)nc32)c1 | CAMKK2 human | binding, KINOMEscan |  | 100 nM | lower = stronger binding | percent of control | 76%

Repeated from above:
Structure (SMILES) | tested on | assay | test system | conditions | how to read | measurement | result
CO[C@@H]1[C@@H](OC(N)=O)[C@@H](O)[C@H](Oc2ccc3c(O)c(NC(=O)c4ccc(O)c(CC=C(C)C)c4)c(=O)oc3c2C)OC1(C)C | DLD-1 parental |  |  | 50 µM, replicate 1 |  | colony count | 66.5
